Measurements gathered from unrelated publications.
Every numbered part comes from another study and shows a few of its results, in no order. Values joined by “and” are separate records of one study, mostly repeats; a detail may differ.

Series 1 — effect on: enzyme activity; mode: inhibitor; technique: fluorescence
Compound: CC(=O)NC/C(=C\F)COc1cccc(Cn2c(=S)[nH]c(=O)c3[nH]cnc32)c1
Target: Myeloperoxidase (MPO, Homo sapiens, UniProt P05164)
UniProt P05164, sequence (whole entry, looked up): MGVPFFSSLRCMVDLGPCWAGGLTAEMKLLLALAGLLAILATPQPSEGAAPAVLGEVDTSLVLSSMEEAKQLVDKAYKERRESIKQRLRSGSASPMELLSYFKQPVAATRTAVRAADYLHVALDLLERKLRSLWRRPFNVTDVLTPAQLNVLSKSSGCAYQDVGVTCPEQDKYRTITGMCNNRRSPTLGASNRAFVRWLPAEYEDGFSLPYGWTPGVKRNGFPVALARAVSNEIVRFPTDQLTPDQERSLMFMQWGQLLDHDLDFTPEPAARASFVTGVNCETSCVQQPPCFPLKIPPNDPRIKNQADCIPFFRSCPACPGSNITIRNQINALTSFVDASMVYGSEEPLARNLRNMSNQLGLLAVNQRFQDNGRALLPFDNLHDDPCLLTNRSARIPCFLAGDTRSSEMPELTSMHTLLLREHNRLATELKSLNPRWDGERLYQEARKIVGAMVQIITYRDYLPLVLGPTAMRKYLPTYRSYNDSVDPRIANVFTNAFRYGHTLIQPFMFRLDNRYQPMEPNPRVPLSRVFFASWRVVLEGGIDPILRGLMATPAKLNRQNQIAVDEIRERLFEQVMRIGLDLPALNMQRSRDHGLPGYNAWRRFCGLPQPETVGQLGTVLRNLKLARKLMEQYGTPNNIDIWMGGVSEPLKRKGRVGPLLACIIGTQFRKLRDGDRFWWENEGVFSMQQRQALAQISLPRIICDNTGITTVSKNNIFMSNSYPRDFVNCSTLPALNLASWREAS
concentration	inhibition
10 µM	99.3% and 99.9% and 98.7%
0.3704 µM	79.8% and 80.3% and 64%
3.333 µM	98.5% and 95.8% and 98.7%
200 pM	-6.94%
41.2 nM	19.2% and 26% and 21.2%
1.5 nM	-10.3% and -6.36% and -5.13%

Series 2 — host: Crbn I391V mouse, MC-38 tumour
SMILES: Cn1cc(-c2cccc(CN3CCC4(CC3)COc3c4ccc4c3CN([C@H]3CCC(=O)NC3=O)C4=O)c2)cn1
route	dose	time	notes	added	tumour volume
–	30 mg/kg	day 13	–	anti-LAG3 antibody 10 mg/kg weekly	1000 mm3 and 122 mm3 and 859 mm3 and 400 mm3
oral	30 mg/kg once daily	day 3	–	–	151 mm3 and 117 mm3 and 126 mm3 and 81.5 mm3 and 148 mm3
–	30 mg/kg	day 1	–	anti-LAG3 antibody 10 mg/kg weekly	67.8 mm3 and 75.1 mm3 and 90.1 mm3 and 83.9 mm3
oral, daily	30 mg/kg	day 1	anti-PD1 combination study	–	88.8 mm3 and 100 mm3 and 109 mm3 and 85.6 mm3 and 78 mm3

Series 3
Structure (SMILES): COCCCCCCC1CC2C(CCC3(C)C(O)CCC23)c2ccc(O)cc21 (centres unmarked)
cell line	technique	item	concentration	reference	mRNA level ratio
A549	DNA microarray	GZMK	50 µM	untreated cells	13.1
PANC-1	microarray	ADAMTS14	50 µM	untreated	0.827
PANC-1	microarray	ADAMTS8	10 µM	untreated	0.506
SK-OV-3	DNA microarray	GZMK	10 µM	untreated cells	23.7
PANC-1	microarray	GADD45A	10 µM	untreated	1.11
PANC-1	microarray	ISG20L1	50 µM	untreated	1.82
A549	DNA microarray	CCL11	50 µM	untreated cells	1
PANC-1	microarray	CCL8	50 µM	untreated	31

Mixed results
Compound	tested on	test	test system	conditions	quantity	result
Cc1nc(C)c(C=[N+]([O-])C(C)(C)C)nc1C	–	footprint test	MPTP-induced Parkinson's disease mouse model	30 mg/kg	stride length	6.76 cm and 7 cm and 6.91 cm and 6.12 cm and 6.97 cm and 5.53 cm and 6.51 cm and 5.59 cm
C#CCN1C(=O)C(O)(C(=O)O)Oc2cc(F)ccc21 (centres unmarked)	Arabidopsis thaliana	root length	Col-0	6.25 µg/mL, 7 days, seed germination, dark	inhibition	20.9%

Repeated from above (series 1):
concentration	inhibition
1.5 nM	-10.3% and -6.36% and -5.13%
10 µM	99.3% and 99.9% and 98.7%
41.2 nM	19.2% and 26% and 21.2%
